Published values gathered from unrelated publications.
Numbered parts are unrelated; each lists some results of a single study.

Set 1
Target: RING finger protein unkempt homolog, zinc fingers 1-6, GST-SBP tag (UNK, Homo sapiens, UniProt Q9C0B0, residues 30-357)
Sequence of UniProt Q9C0B0 (30-357, looked up): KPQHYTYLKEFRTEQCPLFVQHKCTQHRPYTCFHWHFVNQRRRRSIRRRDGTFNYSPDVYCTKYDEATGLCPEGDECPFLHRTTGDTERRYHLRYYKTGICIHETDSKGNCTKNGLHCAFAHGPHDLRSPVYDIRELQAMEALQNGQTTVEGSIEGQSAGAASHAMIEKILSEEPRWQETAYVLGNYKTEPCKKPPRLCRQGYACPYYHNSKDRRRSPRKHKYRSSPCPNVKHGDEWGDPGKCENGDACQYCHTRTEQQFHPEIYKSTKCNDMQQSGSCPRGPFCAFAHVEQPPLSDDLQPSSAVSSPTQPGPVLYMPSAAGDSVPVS
Method: RNA Bind-n-Seq
Molecule type: RNA
Medium: in vitro
Tested at: not given
Setting: RNA with constant flanks, human and mouse sites, ends assumed
Reference: input RNA pool
Direction: higher = stronger binding
For `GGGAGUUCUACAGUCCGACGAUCUGAUGCCCAUUUUUUGUGCCUUGUGCUGUUGGAUGGUAACGACCACUCACCAUGUAAACACAGUACCUCAGUUUUCUGUCCACAGCUGCAGUCGCUCUGUCCCUCGUGCUUCACUGUGGGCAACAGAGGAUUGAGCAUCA`, the bound/input enrichment was 0.168 ratio.
The bound/input enrichment of `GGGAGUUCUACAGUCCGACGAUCAGAGCCAAGAUGGCUGUCCUCUCUAAGGAGUAUGGAUUUGUGCUUCUCACUGGUGCUGCCAGCUUUGUGAUGGUGCUCCACCUAGCCAUCAACGUGGGCAAAGCCCGCAAGAAGUACAAGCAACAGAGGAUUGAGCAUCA` is reported as 0.21 ratio.
`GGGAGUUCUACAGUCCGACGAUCUUCUUGAUCUGGGACUGCUGUGAUGCAUGGUUAAAAGUAAAACAUCUUGUGAAUUUAAUUGUUAUGGAUCCAUUUGUUGAUCUUGCCAUCACUAUUUGCAUUGUCUUAAAUACCCUCUUUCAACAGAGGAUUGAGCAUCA` gave a bound/input enrichment of 0.105 ratio.
`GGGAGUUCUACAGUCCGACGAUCUUUCUCUCUUCCCCUCUCCCUCUCCCUCUGCCGGGUGGAUGCUUUCUCCAUGUGGCAAGGCUGUAACUGUUCACAGCUGUCUGAAACAGCAGUGGACCAGGAGCAGCUUGGAGUUUUAACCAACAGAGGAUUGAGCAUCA` gave a bound/input enrichment of 0.759 ratio.
The bound/input enrichment of `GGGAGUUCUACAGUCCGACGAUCGUUCAGUUGGGGGGUAGACUGCUCAGUGAUAGUGCUUGCCAAGCUCUACCCUUAACUCCUUAGGUUGAACUGUGGCCUUUCCCACAAUCUCCCUCACCCCAAACUAAAACCAAAUCCAAGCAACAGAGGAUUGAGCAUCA` is reported as 0.505 ratio.
`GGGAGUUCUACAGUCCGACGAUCUGUCGGGUGGCUUAUCUGUGGGUGCCAUGGGUGAUGAUGUUCAUUUUAAGCUUUUGCCUGUAGUACAAGCACAUAAUGCUACUGAACGUUUUUCCACUUGGAGACUGUGAGCUGGUUGCUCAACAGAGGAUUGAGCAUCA` gave a bound/input enrichment of 0.198 ratio.
`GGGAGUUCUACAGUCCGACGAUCUCACCCACUCUUUGAGUACUUUGACUACGAGUCCAGAAAGAGCAUGAGUUGUUAUGUGCUUAGUAAUGUUCUGGAUUAUAACACAGAAAUUGUCUCUCAAGACCAGGUGGAUUCCAUAAUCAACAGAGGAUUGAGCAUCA` gave a bound/input enrichment of 0.14 ratio.
For `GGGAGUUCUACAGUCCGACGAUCCGGCCAUCAUCUCCUGUCGCAGUUGCAGCUCUUGCUCAUCCUCCCUCUGGGCUCCAUCCAGCACCAUCUACUGCCCCGGGUCCCCAUGCUCCAUUAAUGCCUCCAUCUCCUCCAUCACAACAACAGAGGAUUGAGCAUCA`, the bound/input enrichment was 0.538 ratio.
The bound/input enrichment of `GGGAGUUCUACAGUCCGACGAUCCCCAAGCUCAAGCUCUGGAUGGCGGCCAUGCAGCAAGACCCUGUGGCAUCCUCUCACAAAAUUGAUGCCAAGACCUACCGCGAGUACUUAAAUCUCUACCUACAGGACAGCCCCGAGGCCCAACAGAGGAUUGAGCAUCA` is reported as 0.141 ratio.
`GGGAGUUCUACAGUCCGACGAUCUCCUUUAUGUAUUCUCUUCUACAAUACAACACAUUGAAACUGUAUUUACUUGUUAUGUUGUAAUAUUUUGCUGCUGAAUUUGGGGCUACUUAUAUUCUGCAGAAAAUUAAUUGAAAUACCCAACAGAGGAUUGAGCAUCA` gave a bound/input enrichment of 0.235 ratio.
`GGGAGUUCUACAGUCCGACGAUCACUUCAUUUUGAUUGAGUACAUGAUUUUUGAACAACUCCUAUACCUGCUCUUUGUAAGAAAUUAAAUAAAGUUAUUUUGGAUUGUUCCACCUUUGUAAACAAUUGGCUAAAGAGGGAUCACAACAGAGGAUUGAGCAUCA` has a bound/input enrichment of 0.456 ratio.

Set 2
Target: Histone acetyltransferase KAT6A, winged helix 1, GST fusion (KAT6A, Homo sapiens, UniProt Q92794, residues 1-85)
Method: protein binding microarray
Molecule type: double-stranded DNA, one strand shown
Medium: in vitro
Tested at: not given
Setting: 8-mer, flanks averaged, mean of 2 arrays, mostly near background
Reference: not given
Direction: higher = stronger binding
Target sequence (chain): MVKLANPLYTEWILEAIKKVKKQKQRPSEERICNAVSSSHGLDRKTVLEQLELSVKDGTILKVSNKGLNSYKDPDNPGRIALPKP
`ATTGGTCG` gave an E-score of -0.0987.
For `CCAATGTA`, the E-score was -0.128.
The E-score of `ATGTAGAC` is reported as -0.0181.
`ATCAGGTG` gave an E-score of -0.0712.
For `CCGAACTA`, the E-score was 0.0731.
The E-score of `ACCTATAC` is reported as -0.00995.
`GATTCCAC` has an E-score of -0.144.
For `ACGGGTTA`, the E-score was 0.347.
With `GGTTTTAA` the E-score was 0.0473.
With `ACGCAGGG` the E-score was 0.0258.
With `GTATATGA` the E-score was -0.0665.
With `ACCTACTC` the E-score was -0.154.
`AACACGGT` has an E-score of 0.13.
For `CTGAGAGC`, the E-score was 0.0187.
`CGAATTTA` gave an E-score of -0.126.
For `CGCTAGTC`, the E-score was 0.119.
`AGAAGGAA` has an E-score of 0.117.
For `CTGCCTGC`, the E-score was -0.158.
The E-score of `AGCGGAGC` is reported as 0.211.
With `TCGAGTAA` the E-score was -0.216.
For `ATTCGCAA`, the E-score was -0.0241.
The E-score of `GGACTCGA` is reported as 0.0645.
The E-score of `GGATACAC` is reported as -0.115.
`GAGCGGTA` has an E-score of 0.286.
For `GAGTGAGA`, the E-score was -0.0729.

Set 3
Target: RNA binding protein fox-1 homolog 2, RRM domain, GST-SBP tag (RBFOX2, Homo sapiens, UniProt O43251-10, residues 100-194)
Method: RNA Bind-n-Seq
Molecule type: RNA
Medium: in vitro
Tested at: 365 nM
Setting: natural RNA segment, single round, ends assumed
Reference: no-protein control
Direction: higher = stronger binding
Residues (chain): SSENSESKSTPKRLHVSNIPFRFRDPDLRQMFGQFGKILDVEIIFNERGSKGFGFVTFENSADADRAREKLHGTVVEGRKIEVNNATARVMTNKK
`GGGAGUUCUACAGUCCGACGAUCUUAUCUAAACAGUUGCAGAGAUUUUUAUAUUUGUAGAAAGCAUCAAGAACGGUAUGCCAGUCAGGUCCUGGAAGUAAAAUGGAGGCACAAUAUAGCACUGACUGAGUUGUUGGAAUUCUCGGGUGCCAA` — result for “RBNS enrichment (R)”: 1.82.
`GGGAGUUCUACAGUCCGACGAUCUUUCAGUGUAAUUAAUUCAACUGCACUUAACACUAAUGUCCGUGUUGGUAUAGAAAUGUCUAAAUCCUAUACUCUAGUUGAGGAAGAUCUUCCAUAAUUUUAUGGUAUUAUGGAAUUCUCGGGUGCCAA` — result for “RBNS enrichment (R)”: 0.718.
`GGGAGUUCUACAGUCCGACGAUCAAGAGACAGUGCUGUACAUUCUCAUAGAGAUAGAGAAGAUCUAAAAAGUUGAGACUACUCAAUCCAGUUAACAACAGCAGGAGCACUAGAGUUUGUUCAUUUAUUCUCUCUGGAAUUCUCGGGUGCCAA` — result for “RBNS enrichment (R)”: 0.437.
Under “RBNS enrichment (R)”, `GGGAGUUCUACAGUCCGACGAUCUUUUCUUAAUAUCCCUCUAUAAUGCCAGAAAUUGGCAUAAAUGGUACAUUCACUAAAUUUAUCAAAUAAAUUUAAAACUAGAUUGUUCCUAAGUCCAAUUGUUGAAAUUGUGGAAUUCUCGGGUGCCAA` is recorded as 0.365.
Under “RBNS enrichment (R)”, `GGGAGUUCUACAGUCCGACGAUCGACUUGGGAAAAUGUUUCUGGAGAGGCUUUCAGAGUGGCUGGAAAAGGCUCUUGUUGCUGUAAUUUAGAGAGGAGCUCUGUGUCCUUGGCCAGUCAAGUAAGUUCCUGGAUGGAAUUCUCGGGUGCCAA` is recorded as 0.451.
`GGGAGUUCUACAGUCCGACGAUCCAAAGCCUGUGAGCAGUAUACGUGGAUGCUCACCCAUGAGAAGGAGCACACACGCCUCAUUCUCUGCCCUCACCCACUGCUCACCUAGAGCAUCGCUGAGCGUUAGACAAUGGAAUUCUCGGGUGCCAA`: “RBNS enrichment (R)” 0.267.
`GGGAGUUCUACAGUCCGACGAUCAUGUUUGCAAUUAUGCUGUGAGAAUUUAAAUGUGUUAGAUGGAAAAUGCUAUUGGCAGGGAAUAAUAAUAAAAAAAAAAGAAAAUCAUUCUGUUUCCUGCAGUGGGAACUUGGAAUUCUCGGGUGCCAA`: “RBNS enrichment (R)” 1.7.
For `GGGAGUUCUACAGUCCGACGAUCAUGCGUGAGCCUCCAAGGCACAGCCCAGGGAAGCCUCCCCAGAGUCAGGUAACAACCAGAUGGCUUCACUGAAACCUGCUUUUGUAAAUUACUUUUUUUUACUGUUGCUGUGGAAUUCUCGGGUGCCAA`, “RBNS enrichment (R)” read 0.331.
`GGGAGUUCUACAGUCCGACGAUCGUAAGAAAUUGCCGUUUUUACCCUGCCCUGGCUGGCAUGUGAGAAGCCAUGGAAGGUUGUGGUUGUAAAUGAGUUGUCUAAAGGGGUGCAGAGGCCUGAGGUUUCUAAAAUGGAAUUCUCGGGUGCCAA`: “RBNS enrichment (R)” 27.8.
Under “RBNS enrichment (R)”, `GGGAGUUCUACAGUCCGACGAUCCCGCAUCUUUCUCUCUCCUCCAAAUGACAAAGUUUGGGGAAUUUUUGAAUUUUCCUAGCAUCGCCCUUGUGCUCAUCAGGUAAUCUGCUAAGGAGGAAAAAAGAAAAGAAUGGAAUUCUCGGGUGCCAA` is recorded as 0.567.
`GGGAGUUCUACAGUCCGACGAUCGCAGGGCCUAAUCUAGCUGAGGUCCAGAAAUACAAACCUGGAACUUCAUAUGGACCAAGUGGCCACACACUGAAAAACCCGUAUAGCGACUCAGUGAAAUAAACAAGAGCUGGAAUUCUCGGGUGCCAA` — result for “RBNS enrichment (R)”: 0.314.
`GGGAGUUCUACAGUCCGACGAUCGGCUCUGGGCCCUCGUCCACCGGGCCAAGUGGAGCCCCGCUUCAAGCUCUCUGUUCAGCUCCGCGUUCUCAUGCUUCUCAUGGGGUGGGAAAAGGGGGCAAAGCCCCCACUGGAAUUCUCGGGUGCCAA`: “RBNS enrichment (R)” 0.39.

Set 4
Target: PABPC1L2, full length, GST fusion (mouse, UniProt A0ABA7IW68)
Method: RNAcompete
Molecule type: RNA
Medium: in vitro
Tested at: 20 nM
Setting: 7-mer, probes averaged, single round
Reference: mean of 7-mers
Direction: higher = stronger binding
Residues (chain): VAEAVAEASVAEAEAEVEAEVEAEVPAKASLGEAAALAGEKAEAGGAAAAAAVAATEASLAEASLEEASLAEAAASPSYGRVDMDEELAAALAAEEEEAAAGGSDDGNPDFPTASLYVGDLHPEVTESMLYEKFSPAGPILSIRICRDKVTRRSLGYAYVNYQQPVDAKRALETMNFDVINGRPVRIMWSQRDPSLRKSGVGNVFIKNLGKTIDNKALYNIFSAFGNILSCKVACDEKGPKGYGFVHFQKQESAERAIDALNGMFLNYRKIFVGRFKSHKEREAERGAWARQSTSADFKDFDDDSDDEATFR
`GAGGUCG` has a 7-mer Z-score of -0.132.
The 7-mer Z-score of `AAAGAUA` is reported as 2.87.
`GAAUUUC` gave a 7-mer Z-score of -0.373.
`UUCUCGG` gave a 7-mer Z-score of -0.338.
`GGCCAUG` gave a 7-mer Z-score of -0.0953.
The 7-mer Z-score of `GUGCGAC` is reported as 0.0515.
For `CAGUCUC`, the 7-mer Z-score was -0.0663.
`CCGCCGG` has a 7-mer Z-score of -0.528.
With `UGCGAGU` the 7-mer Z-score was -0.289.
For `GCUCCAC`, the 7-mer Z-score was -0.255.
For `GUCAACG`, the 7-mer Z-score was -0.153.
With `UGUUAUU` the 7-mer Z-score was -0.322.
For `UAGUCAU`, the 7-mer Z-score was -0.273.
With `CAUAGAA` the 7-mer Z-score was 0.325.
With `AGAGUAC` the 7-mer Z-score was -0.235.
`CCGGGCG` gave a 7-mer Z-score of 0.169.
For `GCAAUCU`, the 7-mer Z-score was -0.0464.

For quick reference, copied from above (set 4):
The 7-mer Z-score of `GUGCGAC` is reported as 0.0515.
For `CAGUCUC`, the 7-mer Z-score was -0.0663.
`CCGCCGG` has a 7-mer Z-score of -0.528.
With `UGCGAGU` the 7-mer Z-score was -0.289.
For `GCUCCAC`, the 7-mer Z-score was -0.255.
For `GUCAACG`, the 7-mer Z-score was -0.153.
With `UGUUAUU` the 7-mer Z-score was -0.322.
For `UAGUCAU`, the 7-mer Z-score was -0.273.
With `CAUAGAA` the 7-mer Z-score was 0.325.
With `AGAGUAC` the 7-mer Z-score was -0.235.
